# Published values pooled from the literature.
# Compare with care: the assays were run in different laboratories. ± marks the error that the study gave.
# Cell line: HepG2
Structure (SMILES),assay,setting,IC50 [µM]
COc1cc(-c2ccc(C(=O)N/N=C/c3cc(Cl)ccc3Cl)c(C)n2)cc(OC)c1OC,"cell growth or viability, MTT",,13.1
CC(=O)OCCSc1nc2c3cnn(C(=O)CNc4ccc(C)cc4)c3ncn2n1,"cell growth or viability, MTT",48 h,0.088
O=C(CN1CCN(c2nc3ccccc3[nH]c2=O)CC1)Nc1ccccc1,"cell growth or viability, MTT",24 h,11.5
O=C(N/N=C/c1ccccc1O)/C(=C/c1ccc(F)cc1)NC(=O)c1ccccc1,,concentration not given,27.3 ± 1.29
O=[N+]([O-])c1ccc(-n2nc(-c3cccs3)sc2=NN=C2CCCc3ccccc32)cc1,cell growth or viability,,68.9
CC(=O)c1ccc(NC(=O)CN2CCN(c3nc4ccccc4nc3Cl)CC2)cc1,"cell growth or viability, MTT",24 h,12.5
Cc1nc2ccccc2nc1SCC(=O)Nc1ccc(C(=O)NNC(=O)c2ccccc2O)cc1,"cell growth or viability, MTT",,27.1
CCOc1nc2c(c(-c3ccc(Cl)cc3)c(C#N)c(=O)n2C2CCCCC2)c(=O)[nH]1,"cell growth or viability, MTT",,8.1
O=C1NN(c2ccccc2)C(c2ccccc2)=N/C1=C\c1ccc(F)cc1,,concentration not given,5.59
Cc1nc2ccccc2n(CC(=O)Nc2ccc(C(=O)NNC(=O)c3ccccc3O)cc2)c1=O,"cell growth or viability, MTT",,14.8
COc1ccc(-c2cc(-c3ccc4ccccc4c3)c3c(=O)[nH]c(=O)[nH]c3n2)cc1,"cell growth or viability, MTT",48 h,< 5
COc1cc(-c2cc(-c3ccc(Cl)cc3)n(CN3CCOCC3)c(=O)c2C#N)ccc1O,"cell growth or viability, MTT",,14.1
COc1cc(-c2ccc(-c3nnc(SCCCBr)o3)c(C)n2)cc(OC)c1OC,"cell growth or viability, MTT",,19.3
CNC(=O)c1cc(Oc2ccc(NC(=O)Nc3ccc(Cl)c(C(F)(F)F)c3)cc2)ccn1,"cell growth or viability, MTT",48 h,0.019
COc1cc(-c2ccc(C(=O)N/N=C/c3ccc(O)cc3)c(C)n2)cc(OC)c1OC,"cell growth or viability, MTT",,15.4
COc1cc2nc(N3CCN(C(=O)OCc4ccccc4)[C@H](C(=O)NC(C)(C)C)C3)nc(N)c2cc1OC,"cell viability, ATP content",24 h,70.5
N#Cc1c(-c2ccc(Cl)cc2)c2c(=O)[nH]c(-c3ccco3)nc2n(C2CCCCC2)c1=O,"cell growth or viability, MTT",,13.4
O=C(CN1CCN(c2nc3ccccc3[nH]c2=O)CC1)Nc1ccc(Cl)cc1,"cell growth or viability, MTT",24 h,10.4
COC(CSc1nc2c3cnn(C(=O)CNc4ccc(C)cc4)c3ncn2n1)OC,"cell growth or viability, MTT",48 h,0.074
O=C(O)c1cc(/N=N/c2ccc(S(=O)(=O)Nc3ccccn3)cc2)ccc1O,"NF-κB activity, inhibitor, luciferase",TNF-stimulated,0.9
CNC(=O)c1cc(Oc2ccc(NC(=O)Nc3ccc(Cl)c(C(F)(F)F)c3)cc2)ccn1,"cell proliferation, MTT","48 h, miR-140-3p plus mutant PXR",1.74 ± 0.47
Cc1ccc(NC(=O)CN2CCN(c3nc4ccccc4[nH]c3=O)CC2)cc1,"cell growth or viability, MTT",24 h,7.82
O=C(Nc1cccc(Cl)c1)/C(=C/c1ccc(F)cc1)NC(=O)c1ccccc1,,concentration not given,23.7 ± 1.32
